Assay results gathered from unrelated publications.
Each line is one published result; not all experiments were run side by side.
LHY full length assumed: LHY full length assumed (Arabidopsis thaliana, UniProt Q6R0H1)
UniProt Q6R0H1, sequence (whole entry, looked up): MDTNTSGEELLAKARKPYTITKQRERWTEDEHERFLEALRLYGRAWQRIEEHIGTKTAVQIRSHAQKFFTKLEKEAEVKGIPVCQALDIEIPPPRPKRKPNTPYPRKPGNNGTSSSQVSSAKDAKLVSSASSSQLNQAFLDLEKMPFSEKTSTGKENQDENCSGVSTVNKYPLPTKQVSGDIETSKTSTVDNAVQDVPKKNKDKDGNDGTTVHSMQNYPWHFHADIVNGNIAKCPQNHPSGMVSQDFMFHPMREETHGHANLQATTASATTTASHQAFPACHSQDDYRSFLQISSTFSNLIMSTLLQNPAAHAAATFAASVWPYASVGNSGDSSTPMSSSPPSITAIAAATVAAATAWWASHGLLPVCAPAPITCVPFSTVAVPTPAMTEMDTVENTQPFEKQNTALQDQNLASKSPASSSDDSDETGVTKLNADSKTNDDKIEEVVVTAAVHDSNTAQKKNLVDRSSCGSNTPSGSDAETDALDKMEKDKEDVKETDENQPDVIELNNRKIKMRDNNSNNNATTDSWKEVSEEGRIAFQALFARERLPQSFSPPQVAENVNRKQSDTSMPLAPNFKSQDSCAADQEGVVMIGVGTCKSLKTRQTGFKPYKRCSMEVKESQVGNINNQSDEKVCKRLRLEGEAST
Rc3h1: Rc3h1 411-454 (Mus musculus, UniProt Q4VGL6)
UniProt Q4VGL6, sequence (whole entry, looked up): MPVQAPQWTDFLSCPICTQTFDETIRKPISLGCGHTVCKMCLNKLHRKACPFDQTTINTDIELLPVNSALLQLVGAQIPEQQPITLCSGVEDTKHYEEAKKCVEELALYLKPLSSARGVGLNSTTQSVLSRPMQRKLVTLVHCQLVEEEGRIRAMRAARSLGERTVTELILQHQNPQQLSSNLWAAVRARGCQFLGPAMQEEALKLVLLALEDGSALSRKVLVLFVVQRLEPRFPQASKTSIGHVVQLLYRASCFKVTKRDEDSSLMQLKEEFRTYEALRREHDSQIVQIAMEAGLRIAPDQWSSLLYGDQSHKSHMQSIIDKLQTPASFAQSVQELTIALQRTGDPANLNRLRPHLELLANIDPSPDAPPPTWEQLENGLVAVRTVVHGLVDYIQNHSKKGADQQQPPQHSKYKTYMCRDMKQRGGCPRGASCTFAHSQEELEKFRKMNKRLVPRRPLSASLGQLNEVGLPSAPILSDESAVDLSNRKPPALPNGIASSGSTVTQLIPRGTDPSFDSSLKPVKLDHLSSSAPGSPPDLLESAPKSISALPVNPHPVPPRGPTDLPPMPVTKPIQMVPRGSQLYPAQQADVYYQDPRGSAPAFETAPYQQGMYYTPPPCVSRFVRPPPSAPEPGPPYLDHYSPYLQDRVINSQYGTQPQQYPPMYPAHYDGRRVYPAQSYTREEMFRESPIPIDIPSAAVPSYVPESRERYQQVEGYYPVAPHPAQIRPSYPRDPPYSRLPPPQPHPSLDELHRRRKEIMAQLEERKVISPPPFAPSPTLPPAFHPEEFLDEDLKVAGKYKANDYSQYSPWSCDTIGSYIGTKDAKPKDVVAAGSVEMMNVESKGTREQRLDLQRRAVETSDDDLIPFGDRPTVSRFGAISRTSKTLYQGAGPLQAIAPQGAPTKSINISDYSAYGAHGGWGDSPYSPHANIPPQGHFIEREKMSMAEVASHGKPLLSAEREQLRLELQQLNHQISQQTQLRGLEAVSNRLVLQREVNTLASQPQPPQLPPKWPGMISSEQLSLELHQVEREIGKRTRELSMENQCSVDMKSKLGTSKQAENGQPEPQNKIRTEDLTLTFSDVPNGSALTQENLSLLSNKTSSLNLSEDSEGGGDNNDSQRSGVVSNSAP
ERF-D2 full length assumed: ERF-D2 full length assumed (Solanum lycopersicum, UniProt A0A3Q7JX06)
CENPI: CENPI 57-281 (Homo sapiens, UniProt Q92674)
UniProt Q92674, sequence (whole entry, looked up): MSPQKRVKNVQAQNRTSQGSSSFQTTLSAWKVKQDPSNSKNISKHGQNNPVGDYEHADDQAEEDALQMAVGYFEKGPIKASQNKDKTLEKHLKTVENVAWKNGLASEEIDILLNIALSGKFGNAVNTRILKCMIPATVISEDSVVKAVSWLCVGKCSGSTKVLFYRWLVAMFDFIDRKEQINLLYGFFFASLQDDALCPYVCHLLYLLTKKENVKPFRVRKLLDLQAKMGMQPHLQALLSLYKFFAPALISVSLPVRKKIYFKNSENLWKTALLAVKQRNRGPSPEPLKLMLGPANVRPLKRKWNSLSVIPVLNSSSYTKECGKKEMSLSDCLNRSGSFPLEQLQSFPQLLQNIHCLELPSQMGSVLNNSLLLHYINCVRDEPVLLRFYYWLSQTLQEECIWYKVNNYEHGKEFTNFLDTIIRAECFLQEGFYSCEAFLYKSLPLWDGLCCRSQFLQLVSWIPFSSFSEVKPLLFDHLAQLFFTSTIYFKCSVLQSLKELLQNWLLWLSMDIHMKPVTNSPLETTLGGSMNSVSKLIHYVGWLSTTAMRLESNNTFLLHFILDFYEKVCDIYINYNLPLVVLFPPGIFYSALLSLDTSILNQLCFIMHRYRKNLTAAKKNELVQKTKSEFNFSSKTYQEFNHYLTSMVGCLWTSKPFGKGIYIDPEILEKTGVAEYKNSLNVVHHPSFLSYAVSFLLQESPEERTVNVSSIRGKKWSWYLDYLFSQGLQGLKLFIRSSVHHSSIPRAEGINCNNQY
RAP1/Yku70/Yku80: RAP1/Yku70/Yku80 (Saccharomyces cerevisiae)
UniProt Q9SM50, sequence (whole entry, looked up): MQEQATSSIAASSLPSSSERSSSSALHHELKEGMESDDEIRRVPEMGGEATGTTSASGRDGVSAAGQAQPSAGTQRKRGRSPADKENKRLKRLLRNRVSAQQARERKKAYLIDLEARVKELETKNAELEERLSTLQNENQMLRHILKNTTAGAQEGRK
UniProt Q64MA1, sequence (whole entry, looked up): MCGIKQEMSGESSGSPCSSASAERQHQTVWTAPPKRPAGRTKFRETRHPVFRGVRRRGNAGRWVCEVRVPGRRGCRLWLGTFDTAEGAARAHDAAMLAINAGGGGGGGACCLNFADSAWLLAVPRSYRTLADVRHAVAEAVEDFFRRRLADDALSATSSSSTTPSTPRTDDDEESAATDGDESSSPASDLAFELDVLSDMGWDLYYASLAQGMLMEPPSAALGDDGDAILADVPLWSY
UniProt Q9RYE6, sequence (whole entry, looked up): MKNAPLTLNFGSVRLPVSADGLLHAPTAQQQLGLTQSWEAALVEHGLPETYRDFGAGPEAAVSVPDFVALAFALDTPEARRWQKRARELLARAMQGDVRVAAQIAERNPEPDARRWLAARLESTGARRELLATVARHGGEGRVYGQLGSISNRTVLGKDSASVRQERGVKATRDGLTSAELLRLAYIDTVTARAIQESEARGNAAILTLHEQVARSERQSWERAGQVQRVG
UniProt G5EF15, sequence (whole entry, looked up): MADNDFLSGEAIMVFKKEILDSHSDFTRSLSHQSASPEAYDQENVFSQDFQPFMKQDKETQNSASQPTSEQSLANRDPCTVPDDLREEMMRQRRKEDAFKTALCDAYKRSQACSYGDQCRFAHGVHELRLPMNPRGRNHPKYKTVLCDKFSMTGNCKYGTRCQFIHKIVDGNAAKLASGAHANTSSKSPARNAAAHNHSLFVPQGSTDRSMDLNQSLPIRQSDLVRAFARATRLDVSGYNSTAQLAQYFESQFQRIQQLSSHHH
UniProt O24646, sequence (whole entry, looked up): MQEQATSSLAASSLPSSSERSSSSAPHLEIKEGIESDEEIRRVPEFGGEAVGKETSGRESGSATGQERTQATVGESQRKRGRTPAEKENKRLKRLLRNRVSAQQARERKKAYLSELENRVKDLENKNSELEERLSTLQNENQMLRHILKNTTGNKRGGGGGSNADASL
UniProt Q15717, sequence (whole entry, looked up): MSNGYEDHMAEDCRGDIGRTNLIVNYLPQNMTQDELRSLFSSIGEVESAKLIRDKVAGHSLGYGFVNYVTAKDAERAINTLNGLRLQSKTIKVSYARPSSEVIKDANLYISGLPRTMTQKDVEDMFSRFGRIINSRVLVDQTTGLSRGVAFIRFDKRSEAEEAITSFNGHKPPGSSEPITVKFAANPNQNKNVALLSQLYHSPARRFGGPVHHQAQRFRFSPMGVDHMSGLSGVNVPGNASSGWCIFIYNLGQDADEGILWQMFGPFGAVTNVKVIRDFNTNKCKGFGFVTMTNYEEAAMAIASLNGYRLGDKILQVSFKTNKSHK
UniProt P32787, sequence (whole entry, looked up): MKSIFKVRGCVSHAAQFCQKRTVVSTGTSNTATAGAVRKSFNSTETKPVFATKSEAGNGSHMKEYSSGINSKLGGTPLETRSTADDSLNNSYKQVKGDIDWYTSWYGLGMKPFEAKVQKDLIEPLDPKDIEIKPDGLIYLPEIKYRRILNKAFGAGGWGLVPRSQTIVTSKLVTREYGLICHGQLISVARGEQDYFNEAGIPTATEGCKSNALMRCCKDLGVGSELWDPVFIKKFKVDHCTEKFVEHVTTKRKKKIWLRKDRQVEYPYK
UniProt P19338, sequence (whole entry, looked up): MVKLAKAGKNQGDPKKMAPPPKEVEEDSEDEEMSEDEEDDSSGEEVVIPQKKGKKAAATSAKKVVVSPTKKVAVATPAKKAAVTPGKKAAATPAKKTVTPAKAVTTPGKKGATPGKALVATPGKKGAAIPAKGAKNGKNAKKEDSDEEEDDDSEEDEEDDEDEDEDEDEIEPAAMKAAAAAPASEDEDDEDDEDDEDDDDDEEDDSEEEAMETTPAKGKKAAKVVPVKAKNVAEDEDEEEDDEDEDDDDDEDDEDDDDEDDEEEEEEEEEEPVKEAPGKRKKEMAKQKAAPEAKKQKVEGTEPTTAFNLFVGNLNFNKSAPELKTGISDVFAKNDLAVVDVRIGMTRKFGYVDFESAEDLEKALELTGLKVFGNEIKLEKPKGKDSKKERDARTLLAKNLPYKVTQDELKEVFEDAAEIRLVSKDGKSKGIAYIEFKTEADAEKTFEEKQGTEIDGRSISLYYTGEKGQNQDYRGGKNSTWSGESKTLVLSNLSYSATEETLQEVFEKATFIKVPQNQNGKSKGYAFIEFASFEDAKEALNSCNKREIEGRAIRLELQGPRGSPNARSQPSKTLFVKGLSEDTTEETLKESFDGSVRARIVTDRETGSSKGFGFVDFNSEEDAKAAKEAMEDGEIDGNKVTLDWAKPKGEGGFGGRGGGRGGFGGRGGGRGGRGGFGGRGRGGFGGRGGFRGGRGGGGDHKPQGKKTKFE

TGTTGTGTGGAATTGTGAGCGGATAACAATTTCACACAGG (dsDNA (Escherichia coli); blunt) — binding (lacI full length assumed N125C (Escherichia coli, UniProt P03023); filter binding; double-stranded DNA, one strand shown): binds
TGCGATTCGTTGTATCCGTAACATTTAACAATCTCGTTTTGTTTTTCTTCTGTTCCTCTA (dsDNA) — binding (LHY full length assumed; EMSA; double-stranded DNA, one strand shown): binds
AAAAAAAAAAAAAAAA (ssRNA) — binding (EIF4A1 1-406 (Homo sapiens, UniProt P60842); fluorescence polarization; RNA; together with: ATP, silvestrol 10 µM): binds
GGCCUUGCACAGUAGUCCAGCGGUAAGGGUGUAGAUCAGGCCCCAUUAAACAUCUACUGAUCCAAUUUCGCCGGCGUACGGCCACGAUCGGGAGGGUGGGAAUCUCGGGGGUCUUCCGAUCCUAAUCCAUGAUGAUUACGACCUGAGUCACUAAAGACGAUGGCAUGAUGAUCCGGCGAUGAAAAA (structured RNA) — binding (Reverse transcriptase-like protein 275-1114 D996A (Bombyx mori, UniProt V9H052); competition; folded RNA): binds
TCGGGTTTCATGTACGTT (dsDNA; blunt) — binding (rcoM1 full length assumed (Paraburkholderia xenovorans, UniProt Q13YL3); fluorescence anisotropy; double-stranded DNA, one strand shown; Fe(II)-CO): no binding
TATTTTAT (ssDNA) — binding (Rc3h1; NMR; single-stranded DNA): binds
CACUAUCGGAAAAAGGGCGACACGGAUAUGUU (ssRNA) — binding (SAMHD1 full length assumed (Homo sapiens, UniProt Q9Y3Z3); fluorescence anisotropy; RNA): binds
CTCTAGGAAGACATAGAAGATC (dsDNA) — binding (SPL2 1-415 (Malus domestica, UniProt D9ZJC1); EMSA; double-stranded DNA, one strand shown): no binding
AATGTAGGCTGAGCCGCAGAGACCACCAAT (dsDNA) — binding (ERF-D2 full length assumed; EMSA; double-stranded DNA, one strand shown): no binding
ATTTTTA (ssDNA) — binding (ELAVL1 2-99 (Homo sapiens, UniProt Q15717); BLI; single-stranded DNA; pH 5.5): binds
CTGCGCACGCATCTGATGGGATATTCTGATCCTTGGTGGATCCC (dsDNA) — binding (PHR2 1-426 (Oryza sativa, UniProt Q6Z156); EMSA; double-stranded DNA, one strand shown): binds
GGATCTCGACGCTCTCCCTT (dsDNA) — binding (RECQL 49-616 D230A/R232A (Homo sapiens, UniProt P46063); fluorescence anisotropy; double-stranded DNA, one strand shown; Mg2+ 5 mM, together with: ADPNP 2 mM): no binding
ATTATTCCCGATGGAATTTCAAATGCT (dsDNA) — binding (WRKY domain-containing protein 1-296 (Camellia sinensis, UniProt A0A4S4EXI7); EMSA; double-stranded DNA, one strand shown): no binding
AGTCCGGGGGTTCCGTTAATGTTTAATCAGATAGGATC (dsDNA) — binding (HNF1A 1-631 C241S (Homo sapiens, UniProt P20823); SPR; double-stranded DNA, one strand shown; NaHS pretreated): binds
ACCAAGCGGGATGTGGAGCCGCCGCCGCCGCCG (dsDNA; blunt) — binding (WT1 zinc finger domain 323-435 (Homo sapiens); EMSA; double-stranded DNA, one strand shown): no binding
AAAAAAAA (ssRNA) — binding (NCL 300-650 (Homo sapiens, UniProt P19338); protein microarray; RNA): no binding
GGTTAGGGTTAG (ssDNA; 5'-phosphate) — binding (POT1 1-299 H82A (Homo sapiens, UniProt Q9NUX5); EMSA; single-stranded DNA): binds
CACGTGCACGTGCACGTGCACGTGCACGTG (dsDNA; blunt, self-complementary) — binding (BHLH domain-containing protein 1-571 (Glycine max, UniProt I1LF47); EMSA; double-stranded DNA, one strand shown): binds
CTATTCATCTATCATAAATTAATTTCGATATTTTGTAAGAATAACTAATCACTGAACAAA (dsDNA) — binding (LHY full length assumed; EMSA; double-stranded DNA, one strand shown): binds
ATAAGTCACATGATGATATTTGATTTTATTATATTTTTAAAAAAAGTAAAAAATAAAAAGTAGTTTATTTTTAAAAAATAAAATTTAAAATATTTCACAAAATGATTTCCGAA (dsDNA) — binding (CENP-I 1-229 K189E (Thermochaetoides thermophila, UniProt G0SFF7); EMSA; double-stranded DNA, one strand shown): binds
TCCAAGCGGGATGCGGAGCCGCCGCCGCCGCCG (dsDNA; blunt) — binding (WT1 zinc finger domain 323-435 (Homo sapiens); EMSA; double-stranded DNA, one strand shown): no binding
UAUAU (ssRNA) — binding (Rc3h1; NMR; RNA): binds
AAAAAAAAAAAAAAAAAAAAAAAAAAAAAAAAAAAAAAAAAAAA (ssRNA) — binding (Uncharacterized protein full length assumed (Arabidopsis thaliana, UniProt F4K402); EMSA; RNA): no binding
TAGCTTCCTCTTCCACCTCTGCCTCTGCCTCACC (dsDNA) — binding (C2H2-type domain-containing protein full length assumed (Triticum aestivum, UniProt A0A3B6KUA9); EMSA; double-stranded DNA, one strand shown; together with: ZnCl2): binds
GACTCTTTGTTTGGC (dsDNA; blunt) — binding (SOX2 39-118 (Homo sapiens, UniProt P48431); NMR; double-stranded DNA, one strand shown): binds
ATTTATATTATTTATTCATATTTATATTTA (ssDNA) — binding (APOBEC3F 1-185 W126A (Homo sapiens, UniProt Q8IUX4); EMSA; single-stranded DNA): no binding
GTGTGGTTAATATG (dsDNA) — binding (RNJ 604-911 (Arabidopsis thaliana, UniProt Q84W56); EMSA; double-stranded DNA, one strand shown): no binding
CCAATCAATAGCTGCGGCCTGCGCAGGAGA (dsDNA) — binding (ERF-D2 full length assumed; EMSA; double-stranded DNA, one strand shown; competitor): binds
TATCGAGTTGCGCCCTCCACTCCTCGGTG (dsDNA) — binding (Ethylene-responsive transcription factor 13 (Nicotiana attenuata, UniProt A0A1J6JM52); EMSA; double-stranded DNA, one strand shown): binds
ACACATTATGTTGTTTATTGTACGGCCAACATTTTGCCTAACA (dsDNA) — binding (SPL13 1-401 (Vitis vinifera, UniProt F6GSW2); EMSA; double-stranded DNA, one strand shown): binds
ACGAGCGTTGCACGTGTATTCCCAAT (dsDNA) — binding (HY5 full length assumed (Solanum lycopersicum, UniProt Q9SM50); EMSA; double-stranded DNA, one strand shown): binds
ATTGCCGATGCCCGCAGGCTCC (dsDNA) — binding (ddrC 1-231 (Deinococcus radiodurans, UniProt Q9RYE6); EMSA; double-stranded DNA, one strand shown; 100 nM): no binding
GTGTTCGGACTCTGCCTCAAGACGGTAGTCAACGTGCTTG (dsDNA) — binding (XRS2 1-325 R48E (Saccharomyces cerevisiae, UniProt P33301); EMSA; double-stranded DNA, one strand shown; abolished): no binding
UUAUUAUUUGUU (ssRNA) — binding (pos-1 97-173 (Caenorhabditis elegans, UniProt G5EF15); NMR 15N-1H HSQC; RNA): binds
TGAGGCGTGTTTGCCAAAGGGCTATCTGTACTGCAAGGTT (dsDNA) — binding (Transcription factor full length assumed (Rosa chinensis, UniProt A0A2P6P452); EMSA; double-stranded DNA, one strand shown): no binding
ACCGGAAGTG (dsDNA) — binding (ERF 22-140 (Homo sapiens, UniProt P50548); X-ray crystallography; double-stranded DNA, one strand shown; Cys72 reduced): binds
ACCAAGCGGGATGCGTAGCCGCCGCCGCCGCCG (dsDNA; blunt) — binding (WT1 zinc finger domain 323-435 (Homo sapiens); EMSA; double-stranded DNA, one strand shown): no binding
AGCCGATGGAATCATCGGTCCGATCAACGTCGCCTTCATTGCATCAGACTCACCAT (dsDNA) — binding (HY5 full length assumed (Arabidopsis thaliana, UniProt O24646); EMSA; double-stranded DNA, one strand shown): binds
GGTGGTGGTGGTGGTGGT (ssDNA) — binding (recA full length assumed F204I (Escherichia coli, UniProt P0A7G6); fluorescence anisotropy; single-stranded DNA; together with: ATPγS): binds
CAGTATGGTAGTGTGTATAATCAGTGTGGTAGTGTATTTTCATTC (dsDNA) — binding (gbp (Glycine max, UniProt Q8LKV1); EMSA; double-stranded DNA, one strand shown): no binding
AGTTGGCAAGTC (dsDNA) — binding (NFIB 14-176 R117A (Homo sapiens, UniProt O00712); BLI; double-stranded DNA, one strand shown; together with: Zn2+ 1 mM): no binding
TTATTTTTAAAAAATAAAATTTAAAATATTTTATTTTTAAAAAATAAAATTTAAAATATT (dsDNA) — binding (CENPI; EMSA; double-stranded DNA, one strand shown): binds
CCGCCGCCGCCGCCGCCGCCGCCGCCGCCGCCGCCGCCG (ssRNA; 39 nt) — binding (NR1I2 (Homo sapiens, UniProt O75469); EMSA; RNA; 200 nM RNA): binds
GCAGCUCGGGGAUCAUGGCCCACUGAACCCCCAAGCGC (structured RNA) — binding (RELA/NFKB1 RHR domains (Homo sapiens); EMSA; folded RNA): binds
GAGCTGCAAGTGGATATTTGGACCTCTTTGAGGTCTTCGTTGGAAACGGGATTTCCTCATATAATGTTACACAGAAGAATTCTCAGTAACTTATTTGTGGTGTGTGTATTCAACTCACAGAGGTGAACCTTCCTTCAGAAAGAGCAGATTTGAAACACTCTTTTTGTACCC (dsDNA) — binding (CENPI; EMSA; double-stranded DNA, one strand shown): binds
GGTTAGGGTTAGGGTTAGGGTTAG (ssDNA; 5'-phosphate) — binding (Pot1 1-301 (Mus musculus, UniProt Q91WC1); EMSA; single-stranded DNA): binds
AAGGTGTGTGGGTGTGGTAATCT (dsDNA) — binding (RAP1/Yku70/Yku80; EMSA; double-stranded DNA, one strand shown): binds
GUGUGUGUGUGUGUGU (ssRNA) — binding (CSTF2 1-107 (Homo sapiens, UniProt P33240); NMR titration; RNA; 27 °C): binds
TTAAAACATGTTGAGCTACAGCACCAGATTCAGCAATTAAGCTCTAAGCCATCCGCAAAAATGACCTCTTATCAA (ssDNA) — binding (MGM101 23-269 (Saccharomyces cerevisiae, UniProt P32787); native MS; single-stranded DNA): binds
DNA 1 AGATGTCCTAGTTTAGTTGGCTGATCGTTG / DNA 2 CAACGATCAGCCAAC (dsDNA; 5' 15 nt overhang; 3'-recessed) — binding (tnsE full length assumed R388P (Escherichia coli, UniProt P05845); EMSA; double-stranded DNA): binds
DNA 1 AAGGTGTGTGGGTGTGGTAATTTTTTTTTTTTT / DNA 2 ATTACCACACCCACACACCTT (dsDNA; 3' 12 nt overhang) — binding (RAP1/Yku70/Yku80; EMSA; double-stranded DNA): binds
CGCGCGCGCGCG (XNA; LNA blunt self-complementary duplex) — binding (ADAR 133-199 (Homo sapiens, UniProt P55265); AUC sedimentation velocity; modified nucleic acid, one strand shown): binds
ATAAGTCTAAGACAATTGTTCCTTTTTCTT (dsDNA) — binding (HY5 1-158 (Solanum lycopersicum, UniProt Q9SM50); EMSA; double-stranded DNA, one strand shown): binds
CCCTCCCACCCCTGCCGCCACACACATCCAAC (dsDNA) — binding (DREB1A 1-238 (Oryza sativa, UniProt Q64MA1); EMSA; double-stranded DNA, one strand shown): binds

Repeated from above:
AGTCCGGGGGTTCCGTTAATGTTTAATCAGATAGGATC (dsDNA) — binding (HNF1A 1-631 C241S (Homo sapiens, UniProt P20823); SPR; double-stranded DNA, one strand shown; NaHS pretreated): binds
ACCAAGCGGGATGTGGAGCCGCCGCCGCCGCCG (dsDNA; blunt) — binding (WT1 zinc finger domain 323-435 (Homo sapiens); EMSA; double-stranded DNA, one strand shown): no binding
AAAAAAAA (ssRNA) — binding (NCL 300-650 (Homo sapiens, UniProt P19338); protein microarray; RNA): no binding
GGTTAGGGTTAG (ssDNA; 5'-phosphate) — binding (POT1 1-299 H82A (Homo sapiens, UniProt Q9NUX5); EMSA; single-stranded DNA): binds
